Assay results collected from several papers.
Numbered parts are unrelated; each lists some results of a single study.

Block 1
Organism: SARS-CoV-2
Read-out: cytopathic effect
Cell line: Vero E6
Tested at: 10 µM
SMILES	inhibition [%]
CC[N+](C)(CC)CCC[n+]1c(-c2ccccc2)c2cc(N)ccc2c2ccc(N)cc21	3.6
O=C1C[C@@H]2OCC=C3CN4CC[C@]56c7ccccc7N1[C@H]5[C@H]2[C@H]3C[C@H]46	-14.1
COc1cc(C(=S)N2CCOCC2)ccc1O	-1
NC[C@H](O)c1ccc(O)c(O)c1	-1.6

Block 2
Target: RNA binding protein fox-1 homolog 2, RRM domain, GST-SBP tag (RBFOX2, Homo sapiens, UniProt O43251-10, residues 100-194)
Technique: RNA Bind-n-Seq
Form: RNA
Sample: in vitro
Tested at: 365 nM
Setting: natural RNA segment, single round, ends assumed
Relative to: no-protein control
Direction: higher = stronger binding
Constant ends, left off below: GGGAGUUCUACAGUCCGACGAUC … UGGAAUUCUCGGGUGCCAA
Construct (chain): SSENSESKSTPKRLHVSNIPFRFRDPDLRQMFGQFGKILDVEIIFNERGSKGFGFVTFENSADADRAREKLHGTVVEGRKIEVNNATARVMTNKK
Oligonucleotide	RBNS enrichment (R)
UUUGAUUCUACUCUUAUAUGCUGGACUGCAUUCACACAUGGCAUGAAAUAAGUCAGGUUCUUUACAAAUGGUAUUUUGAUAGAUACUGGAUUGUGUUUGUGCCAUAUUUG	0.355
AAAGCAUCUACAUCAAUGUUUAUAAAGCAAUCAUUUGUGAACGCCGUGAUGCUGUUUUGUAACACAAACUGAUCUCCUUUAGUUCAGUUUGUCUCCUGUAAAUAGCGGCU	0.226
UCAGUAUAUUAAAUCUGUUUAUUAUGUACACUGUAUGUUUACUCUCAAUAGUACAUGAGAACGUAUUGGCUUACCUUAUACAAUAAAUUAGUCCUUUUGUUUACUCAGUU	0.428
CUGCUCACACCUGGUCCCCUAGCCUUUUCUCUUGGGCAGUGUAGUAGUAUGGGCGAGCCACCCUCAGCUCUUUUAUUGGCCGGGGCUAUAAACCAUGGCUGGGCAUAACU	0.264
GACAUAAACUGCGAUAGCUUCAGCUUGCACUGUGGAUUUUCUGUAUAGAAUAUAUAAAACAUAACUUCAAGCUUAUGUCUUCUUUUUAAAACAUCUGAAGUAUGGGACGC	0.446
CGCUGGCUAUGGCCGUGCACUCCCCGUCCUGUCCACUUCUGAAACUCUUGUUCCUAACGACAACGUGGCUAUGUGCAAUGGAGACAAACUGGACUGUGAGUCUCUUGGUU	0.339
AGAAACUGAGUUAGGGCUUGAGUCAGCAUCCCAGUGCUUUUGUCUAGCUUGGUUCUGGGGUUGAGAAAGUGAAGUUUGGCUGCAAUAGCUCCUCAAGUUGGGUUUCAUUU	1
AAAGUUUAAAGAUGUCUUCAAAGAAGACUAGAGUCUUUAAGUCACUUAUAGCUAUAUUUUACUACAAAAUUUGUGUAUAAAGAUAUAUUUAAGUGUUUUAGAUAAAUUUA	0.785

Block 3
Target: Sal-like protein 4, full length isoform A (SALL4, Homo sapiens, UniProt Q9UJQ4, residues 1-1053)
UniProt Q9UJQ4, sequence (whole entry, looked up): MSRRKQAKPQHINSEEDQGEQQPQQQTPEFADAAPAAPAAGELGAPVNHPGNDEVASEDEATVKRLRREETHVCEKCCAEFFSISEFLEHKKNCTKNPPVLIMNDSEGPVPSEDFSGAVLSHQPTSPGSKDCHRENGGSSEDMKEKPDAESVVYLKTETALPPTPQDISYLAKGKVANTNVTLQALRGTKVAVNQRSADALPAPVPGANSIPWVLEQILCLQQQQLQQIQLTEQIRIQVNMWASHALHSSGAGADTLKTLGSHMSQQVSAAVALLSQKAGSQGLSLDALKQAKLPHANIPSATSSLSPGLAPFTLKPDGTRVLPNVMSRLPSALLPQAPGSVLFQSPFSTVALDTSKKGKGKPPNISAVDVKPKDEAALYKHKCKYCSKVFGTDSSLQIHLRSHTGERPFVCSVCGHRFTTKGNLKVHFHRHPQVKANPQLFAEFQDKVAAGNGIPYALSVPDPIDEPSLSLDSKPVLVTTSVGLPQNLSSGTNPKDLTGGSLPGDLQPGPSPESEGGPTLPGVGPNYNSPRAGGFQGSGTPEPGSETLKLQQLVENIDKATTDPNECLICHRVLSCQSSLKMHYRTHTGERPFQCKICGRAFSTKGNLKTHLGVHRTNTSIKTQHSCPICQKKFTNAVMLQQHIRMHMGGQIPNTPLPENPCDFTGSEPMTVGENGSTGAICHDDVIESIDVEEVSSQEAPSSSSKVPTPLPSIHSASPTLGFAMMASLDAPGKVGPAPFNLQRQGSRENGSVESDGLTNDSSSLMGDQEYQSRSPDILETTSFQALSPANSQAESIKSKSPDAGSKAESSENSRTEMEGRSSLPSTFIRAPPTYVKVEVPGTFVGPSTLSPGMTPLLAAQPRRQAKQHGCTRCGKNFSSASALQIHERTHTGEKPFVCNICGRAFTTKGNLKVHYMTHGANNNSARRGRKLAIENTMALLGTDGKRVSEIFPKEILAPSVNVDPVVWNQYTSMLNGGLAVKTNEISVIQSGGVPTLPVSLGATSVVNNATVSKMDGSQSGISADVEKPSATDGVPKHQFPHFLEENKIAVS
Technique: universal PBM
Form: double-stranded DNA, one strand shown
Sample: in vitro
Tested at: 600 nM
Setting: 8-mer, flanks averaged, mean of replicates
Direction: higher = stronger binding
Oligonucleotide	E-score
CAGCAGTA	-0.0185
CTCCCTAC	-0.0505
GATAAAGC	0.0767
AATTGGAA	0.142
GTTTGCGA	0.0908
GGCGTACA	-0.226
AGACCTTA	0.131
GAACGCGC	-0.278

Block 4
Target: Replicase polyprotein 1ab, polymerase (rep, Severe acute respiratory syndrome coronavirus 2, UniProt P0DTD1)
Read-out: enzyme activity
Action: inhibitor
Tested at: 20 µM
SMILES	inhibition
COC(=O)[C@H](Cc1ccc([N+](=O)[O-])cc1)NC(=O)c1cccc2ccccc12	-2.09%
CCOC(=O)Nc1ccc2c(c1)N(C(=O)CCN(CC)CC)c1ccccc1S2	-0.42%
CC(C)(c1ccc(O)cc1)c1ccc(O)cc1	2.95%
CCOC(=O)[C@H](CCc1ccccc1)N[C@@H](C)C(=O)N1[C@H](C(=O)O)C[C@H]2CCCC[C@@H]21	-3.5%
O=C(Nc1cc(C(F)(F)F)cc(C(F)(F)F)c1)c1cnc(Cl)nc1C(F)(F)F	-0.26%
CC(C1=C(CCN(C)C)Cc2ccccc21)c1ccccn1 (stereo not drawn)	-4.01%
Cc1c(CN(C)C(=O)/C=C/c2cnc3c(c2)CCC(=O)N3)oc2ccccc12	-5.42%
Cc1ccc(Oc2ccccc2-c2csc(N=C3NCCCN3)n2)c(C)c1	-4.35%
O=C(c1c2ccccc2cc2ccccc12)N1CCC(N2CCC[C@@H](C(=O)N3CCOCC3)C2)CC1	2.54%
CC(=O)[C@@]1(O)CC[C@H]2[C@@H]3C=C(Cl)C4=CC(=O)[C@@H]5C[C@@H]5[C@]4(C)[C@H]3CC[C@@]21C	-9.45%
COc1ccccc1OCC(O)CO (stereo not drawn)	9.67%
Cc1noc2c1-c1ccccc1C(c1ccc(Cl)cc1)=N[C@H]2CC(N)=O	-0.34%
c1ccc(CN(CC2=NCCN2)c2ccccc2)cc1	23.3%
O=C(O)c1ccc(-c2ccc3cc(O)c(C45CC6CC(CC(C6)C4)C5)cc3c2)cc1	5.73%
Nc1nc(=O)n([C@@H]2CS[C@H](CO)O2)cc1F	-1.64%
CC(=O)O[C@H]1C[C@@]2(C)[C@@H](C[C@@H](O)[C@H]3[C@@]4(C)CC[C@@H](O)[C@@H](C)[C@@H]4CC[C@@]32C)/C1=C(\CCC=C(C)C)C(=O)O	18.6%
C#C[C@]1(O)CC[C@H]2[C@@H]3CCc4cc(O)ccc4[C@H]3CC[C@@]21C	6.46%
CN(C(=O)CN1C(=O)COc2cc(Cl)c(Cl)cc21)[C@@H](CN1CCCC1)c1ccc(-c2cccc(C(N)=O)c2)cc1	-5.32%
N[C@@H](CC(=O)Nc1ccc(Oc2cc(F)c(F)cc2Br)cc1)C(=O)O	7.76%
COc1ccc2c(c1)C=C1Cn3c-2c(C2CCCCC2)c2ccc(cc23)C(=O)NS(=O)(=O)N(C)CCOCCN(C)C1=O	-1.97%
CN1[C@@H]2CC[C@H]1CC(OC(=O)N1Cc3ccccc3NC1=O)C2 (stereo partly drawn)	-2.22%
Fc1cc(F)c2c(c1)[C@H]1C=CC[C@H]1C(c1cccnc1)N2 (mixture of isomers)	-1.64%
Cc1c(C)c2c(c(C)c1O)CCC(C)(C)O2	-18.3%
Cc1nc2n(c(=O)c1CCN1CCC(c3noc4cc(F)ccc34)CC1)CCCC2O (stereo not drawn)	-7.25%
CC1Cc2ccccc2N1NC(=O)c1ccc(Cl)c(S(N)(=O)=O)c1 (stereo not drawn)	17%

Block 5
Cell line: HEK-293T-ACE2
Tested at: concentration not given
Relative to: vehicle
SMILES	cell number [%]
CCN[C@@H]1C[C@H](N)[C@@H](O[C@H]2OC(CN)=CC[C@H]2N)[C@H](O)[C@H]1O[C@H]1OC[C@](C)(O)[C@H](NC)[C@H]1O.CCN[C@@H]1C[C@H](N)[C@@H](O[C@H]2OC(CN)=CC[C@H]2N)[C@H](O)[C@H]1O[C@H]1OC[C@](C)(O)[C@H](NC)[C@H]1O.O=S(=O)(O)O.O=S(=O)(O)O.O=S(=O)(O)O.O=S(=O)(O)O.O=S(=O)(O)O	102
Cl.Cn1c(CCCC(=O)O)nc2cc(N(CCCl)CCCl)ccc21	103
CC[C@H](C)[C@H]1O[C@]2(CC[C@@H]1C)C[C@@H]1C[C@@H](C/C=C(\C)[C@@H](O[C@H]3C[C@H](OC)[C@@H](O[C@H]4C[C@H](OC)[C@@H](O)[C@H](C)O4)[C@H](C)O3)[C@@H](C)/C=C/C=C3\CO[C@@H]4[C@H](O)C(C)=C[C@@H](C(=O)O1)[C@]34O)O2	95.5
NC(=O)CCC(N)C(=O)O (racemic)	103

Block 6
Target: Interferon regulatory factor 5, full length, phosphomimetic (IRF5, Homo sapiens, UniProt Q13568-2, residues 1-514, S451D/S453D/S456D/S462D)
Technique: protein-binding microarray
Form: double-stranded DNA, one strand shown
Sample: in vitro
Tested at: 940 nM top
Setting: 60-bp whole probe
Added: salmon DNA 0.4 mg/ml
Relative to: random background probes
Direction: higher = stronger binding
Constant ends, left off below: GCCTAGCAC … GTCTTGATTCGCTTGACGCTGCTG
Oligonucleotide	fitted relative affinity [z-score]
TGTAATGATGTAGGCAAATGGTGCTAG	-0.598
GTATTTTTCTAAACCATTTTGTGCTAG	0.921
GCATTTTTCTAATTTACTTTGTGCTAG	1.32
GACGTTTTCAGTTCCGAGACGTGCTAG	1.36
TTAGGTGTCGACTATCGGTTAGTGCTA	0.386
GACGATGTCAGTATCGAGACGTGCTAG	1.44
GACGGAATCGGGTATCGGGACGTGCTA	0.783
TCAACAATTTCAGATTCCACTGTGCTA	0.839

Some of these lines once more (block 6):
Oligonucleotide	fitted relative affinity [z-score]
GTATTTTTCTAAACCATTTTGTGCTAG	0.921
GCATTTTTCTAATTTACTTTGTGCTAG	1.32
GACGTTTTCAGTTCCGAGACGTGCTAG	1.36
TTAGGTGTCGACTATCGGTTAGTGCTA	0.386
GACGATGTCAGTATCGAGACGTGCTAG	1.44
